Measurements gathered from unrelated publications.
Numbered parts are unrelated; each lists some results of a single study. Positions count from the first letter of the parent shown.
Sequence of UniProt Q9P2K8 (whole entry, unmodified, looked up): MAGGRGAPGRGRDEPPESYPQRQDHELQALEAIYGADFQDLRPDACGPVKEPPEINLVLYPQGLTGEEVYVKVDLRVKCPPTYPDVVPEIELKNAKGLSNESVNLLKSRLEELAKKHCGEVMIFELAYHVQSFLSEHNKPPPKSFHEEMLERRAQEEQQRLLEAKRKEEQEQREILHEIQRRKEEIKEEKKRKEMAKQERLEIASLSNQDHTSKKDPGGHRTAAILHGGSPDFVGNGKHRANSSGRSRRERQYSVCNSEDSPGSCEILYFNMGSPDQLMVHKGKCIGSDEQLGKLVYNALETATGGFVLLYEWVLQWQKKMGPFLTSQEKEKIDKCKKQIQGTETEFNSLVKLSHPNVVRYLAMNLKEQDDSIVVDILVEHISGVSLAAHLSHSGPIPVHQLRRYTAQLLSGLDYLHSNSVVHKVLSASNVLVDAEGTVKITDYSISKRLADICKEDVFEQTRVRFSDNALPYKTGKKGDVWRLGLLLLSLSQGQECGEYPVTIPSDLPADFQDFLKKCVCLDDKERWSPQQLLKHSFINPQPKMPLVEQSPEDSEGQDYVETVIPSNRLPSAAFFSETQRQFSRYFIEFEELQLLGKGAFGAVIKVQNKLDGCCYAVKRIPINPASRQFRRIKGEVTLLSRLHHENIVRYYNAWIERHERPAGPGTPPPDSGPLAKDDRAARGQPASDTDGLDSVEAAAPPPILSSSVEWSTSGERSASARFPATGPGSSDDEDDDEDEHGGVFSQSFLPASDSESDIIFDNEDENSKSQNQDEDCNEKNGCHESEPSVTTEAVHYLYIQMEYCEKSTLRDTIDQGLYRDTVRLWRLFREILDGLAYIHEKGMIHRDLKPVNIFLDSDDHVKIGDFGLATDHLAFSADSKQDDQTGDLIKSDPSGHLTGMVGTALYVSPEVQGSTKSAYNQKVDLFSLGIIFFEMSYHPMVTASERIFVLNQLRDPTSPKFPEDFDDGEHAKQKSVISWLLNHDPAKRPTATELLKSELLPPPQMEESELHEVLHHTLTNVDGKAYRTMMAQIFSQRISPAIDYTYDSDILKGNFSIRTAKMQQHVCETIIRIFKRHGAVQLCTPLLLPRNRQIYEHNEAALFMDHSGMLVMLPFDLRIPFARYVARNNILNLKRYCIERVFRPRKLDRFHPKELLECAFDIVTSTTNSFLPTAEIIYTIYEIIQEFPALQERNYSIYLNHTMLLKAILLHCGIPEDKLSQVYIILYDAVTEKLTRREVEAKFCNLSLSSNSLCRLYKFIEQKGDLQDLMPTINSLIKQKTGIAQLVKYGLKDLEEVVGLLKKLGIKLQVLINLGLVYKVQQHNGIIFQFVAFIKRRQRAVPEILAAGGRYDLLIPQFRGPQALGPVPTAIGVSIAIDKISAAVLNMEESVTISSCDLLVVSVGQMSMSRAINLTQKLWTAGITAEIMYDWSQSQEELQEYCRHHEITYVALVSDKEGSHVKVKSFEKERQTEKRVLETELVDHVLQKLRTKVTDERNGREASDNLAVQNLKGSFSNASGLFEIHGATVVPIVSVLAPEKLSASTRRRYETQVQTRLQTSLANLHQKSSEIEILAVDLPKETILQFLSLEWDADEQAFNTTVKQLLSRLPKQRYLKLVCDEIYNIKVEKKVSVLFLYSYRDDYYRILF
Sequence of UniProt P53355 (whole entry, looked up): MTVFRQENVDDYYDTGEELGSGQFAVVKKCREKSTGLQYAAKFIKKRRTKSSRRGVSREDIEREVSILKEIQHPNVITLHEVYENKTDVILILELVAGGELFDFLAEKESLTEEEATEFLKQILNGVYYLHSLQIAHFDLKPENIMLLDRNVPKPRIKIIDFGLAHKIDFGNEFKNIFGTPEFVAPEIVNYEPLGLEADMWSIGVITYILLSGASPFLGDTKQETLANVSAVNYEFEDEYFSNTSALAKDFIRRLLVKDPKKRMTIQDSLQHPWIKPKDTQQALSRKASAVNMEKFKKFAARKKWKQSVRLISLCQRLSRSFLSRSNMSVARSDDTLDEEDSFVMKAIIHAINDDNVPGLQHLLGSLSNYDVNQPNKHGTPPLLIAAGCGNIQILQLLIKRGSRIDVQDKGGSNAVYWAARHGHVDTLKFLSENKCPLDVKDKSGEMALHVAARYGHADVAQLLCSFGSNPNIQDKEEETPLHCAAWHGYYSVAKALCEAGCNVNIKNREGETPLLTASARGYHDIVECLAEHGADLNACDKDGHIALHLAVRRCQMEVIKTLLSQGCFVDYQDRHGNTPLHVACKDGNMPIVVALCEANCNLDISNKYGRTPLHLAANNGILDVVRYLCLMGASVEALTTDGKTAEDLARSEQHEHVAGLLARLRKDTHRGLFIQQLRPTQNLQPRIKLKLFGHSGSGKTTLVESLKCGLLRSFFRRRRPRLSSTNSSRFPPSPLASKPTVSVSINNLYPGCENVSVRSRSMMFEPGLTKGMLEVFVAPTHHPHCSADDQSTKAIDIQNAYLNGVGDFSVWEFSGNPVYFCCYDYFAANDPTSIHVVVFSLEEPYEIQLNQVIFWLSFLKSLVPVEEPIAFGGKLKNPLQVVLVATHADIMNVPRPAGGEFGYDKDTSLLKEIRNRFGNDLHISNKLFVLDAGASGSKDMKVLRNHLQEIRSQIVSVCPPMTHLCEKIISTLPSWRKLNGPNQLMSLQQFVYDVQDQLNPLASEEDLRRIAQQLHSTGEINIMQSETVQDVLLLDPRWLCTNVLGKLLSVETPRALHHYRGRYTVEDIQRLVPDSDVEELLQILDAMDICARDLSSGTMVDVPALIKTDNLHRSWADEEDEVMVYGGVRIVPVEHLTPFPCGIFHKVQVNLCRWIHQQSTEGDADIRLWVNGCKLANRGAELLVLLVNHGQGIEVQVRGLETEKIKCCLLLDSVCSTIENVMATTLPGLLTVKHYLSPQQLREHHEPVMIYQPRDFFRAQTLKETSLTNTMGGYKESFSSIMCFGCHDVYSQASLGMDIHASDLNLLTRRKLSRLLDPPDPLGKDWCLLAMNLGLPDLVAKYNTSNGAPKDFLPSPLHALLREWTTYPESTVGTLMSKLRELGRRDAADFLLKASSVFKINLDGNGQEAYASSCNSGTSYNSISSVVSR
Sequence of UniProt O76039 (whole entry, looked up): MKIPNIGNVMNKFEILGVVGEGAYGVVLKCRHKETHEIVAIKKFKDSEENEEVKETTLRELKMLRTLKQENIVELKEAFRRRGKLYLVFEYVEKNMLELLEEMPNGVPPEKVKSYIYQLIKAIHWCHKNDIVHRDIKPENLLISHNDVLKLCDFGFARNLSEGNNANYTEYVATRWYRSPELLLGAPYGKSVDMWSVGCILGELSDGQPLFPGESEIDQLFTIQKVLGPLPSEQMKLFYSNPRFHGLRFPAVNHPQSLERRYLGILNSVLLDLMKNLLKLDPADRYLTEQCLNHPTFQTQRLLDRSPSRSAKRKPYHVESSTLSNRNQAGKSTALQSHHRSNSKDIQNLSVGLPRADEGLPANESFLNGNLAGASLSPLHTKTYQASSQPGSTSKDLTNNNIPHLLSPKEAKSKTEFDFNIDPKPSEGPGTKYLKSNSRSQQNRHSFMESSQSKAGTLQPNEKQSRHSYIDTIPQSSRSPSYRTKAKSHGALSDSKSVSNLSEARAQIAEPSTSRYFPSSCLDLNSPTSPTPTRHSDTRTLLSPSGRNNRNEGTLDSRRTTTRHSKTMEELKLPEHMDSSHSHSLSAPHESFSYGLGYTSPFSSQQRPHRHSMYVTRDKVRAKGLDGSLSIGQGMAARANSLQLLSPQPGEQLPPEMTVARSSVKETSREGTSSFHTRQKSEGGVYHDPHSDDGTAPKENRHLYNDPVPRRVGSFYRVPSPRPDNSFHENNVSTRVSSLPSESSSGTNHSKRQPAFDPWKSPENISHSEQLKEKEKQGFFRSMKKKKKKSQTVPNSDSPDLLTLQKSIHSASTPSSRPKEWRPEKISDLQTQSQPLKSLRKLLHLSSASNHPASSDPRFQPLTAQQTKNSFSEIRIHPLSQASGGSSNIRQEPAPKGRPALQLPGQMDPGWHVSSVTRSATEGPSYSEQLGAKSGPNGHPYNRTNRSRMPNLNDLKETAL
Sequence of UniProt O95747 (whole entry, looked up): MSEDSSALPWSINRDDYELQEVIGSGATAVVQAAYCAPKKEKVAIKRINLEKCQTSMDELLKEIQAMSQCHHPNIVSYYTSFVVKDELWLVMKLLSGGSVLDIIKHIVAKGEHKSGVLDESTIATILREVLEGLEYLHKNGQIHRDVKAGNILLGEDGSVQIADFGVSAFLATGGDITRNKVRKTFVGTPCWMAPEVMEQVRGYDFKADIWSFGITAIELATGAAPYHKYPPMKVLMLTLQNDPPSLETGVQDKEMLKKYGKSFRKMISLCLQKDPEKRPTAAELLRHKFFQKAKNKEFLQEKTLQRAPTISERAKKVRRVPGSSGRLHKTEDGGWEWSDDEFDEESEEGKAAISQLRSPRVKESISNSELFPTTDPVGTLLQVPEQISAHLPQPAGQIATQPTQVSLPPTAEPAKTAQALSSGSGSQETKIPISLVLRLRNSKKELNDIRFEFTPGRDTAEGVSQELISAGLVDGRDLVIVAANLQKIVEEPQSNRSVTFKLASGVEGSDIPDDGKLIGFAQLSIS
Sequence of UniProt P51955 (whole entry, looked up): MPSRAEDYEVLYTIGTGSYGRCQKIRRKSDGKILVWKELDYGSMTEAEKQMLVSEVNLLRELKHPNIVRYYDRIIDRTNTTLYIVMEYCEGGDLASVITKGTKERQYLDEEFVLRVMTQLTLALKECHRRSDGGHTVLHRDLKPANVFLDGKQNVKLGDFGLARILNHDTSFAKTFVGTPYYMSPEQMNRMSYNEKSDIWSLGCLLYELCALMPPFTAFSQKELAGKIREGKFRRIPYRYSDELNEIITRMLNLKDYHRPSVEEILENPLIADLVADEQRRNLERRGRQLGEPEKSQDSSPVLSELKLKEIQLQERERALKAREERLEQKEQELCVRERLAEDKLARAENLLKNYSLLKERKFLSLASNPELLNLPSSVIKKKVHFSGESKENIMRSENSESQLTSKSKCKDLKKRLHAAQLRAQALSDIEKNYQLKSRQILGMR

Sample 1
Target: Interferon regulatory factor 1, DNA-binding domain (IRF1, Homo sapiens, UniProt P10914, residues 1-114)
Technique: protein-binding microarray
Molecule type: hairpin DNA
Matrix: in vitro
Concentration: not given
Notes: whole hairpin DNA, median over replicate spots
Relative to: not given
Direction: higher = stronger binding
Target sequence (chain): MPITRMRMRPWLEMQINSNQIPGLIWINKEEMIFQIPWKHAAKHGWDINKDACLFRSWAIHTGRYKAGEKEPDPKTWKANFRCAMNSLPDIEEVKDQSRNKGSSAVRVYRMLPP
Oligonucleotide	median fluorescence [a.u.]
GAGGCCGGAAAGCGAAACGCCTCCTGGCGTTTCGCTTTCCGGCCTCACAC	1390
GAGGCCTGAAAGCGAAACGCCTCCTGGCGTTTCGCTTTCAGGCCTCACAC	1160
GAGGCCCGAAAGTGAAACGCCTCCTGGCGTTTCACTTTCGGGCCTCACAC	2230
GAGGCCCGAAAGTGACACGCCTCCTGGCGTGTCACTTTCGGGCCTCACAC (5mC at 16)	526
GAGGCCCGAAAGTGAAACGCCTCCTGGCGTTTCACTTTCGGGCCTCACAC (5mC at 33)	1400
GAGGCCCGAAAGTGACGCGCCTCCTGGCGCGTCACTTTCGGGCCTCACAC (5mC at 16)	552
GAGGCCCGAAAGTGCAACGCCTCCTGGCGTTGCACTTTCGGGCCTCACAC	547
GAGGCCCGAAAGTGAAGCGCCTCCTGGCGCTTCACTTTCGGGCCTCACAC (5mC at 30)	570

Sample 2
Compound: CCCCc1c(-c2ccc(O)cc2)[nH]c2nccnc12
Read-out: enzyme activity
Mode: inhibitor
Concentration: 0.5 µM
Relative to: control
target	remaining activity
Calcium/calmodulin-dependent protein kinase type II subunit delta (CAMK2D, Homo sapiens, UniProt Q13557)	87.3%
TGF-beta receptor type-2 (TGFBR2, Homo sapiens, UniProt P37173)	55%
Death-associated protein kinase 2 (DAPK2, Homo sapiens, UniProt Q9UIK4)	101%
STE20/SPS1-related proline-alanine-rich protein kinase (STK39, Homo sapiens, UniProt Q9UEW8)	76.1%
cGMP-dependent protein kinase 1, isoform beta (PRKG1, Homo sapiens, UniProt Q13976)	88.8%
Serine/threonine-protein kinase 10 (STK10, Homo sapiens, UniProt O94804)	82.8%
Tyrosine-protein kinase Lyn, isoform B (LYN, Homo sapiens, UniProt P07948)	106%
G protein-coupled receptor kinase 3 (GRK3, Homo sapiens, UniProt P35626)	96.2%
Protein kinase C beta type, isoform beta-I (PRKCB, Homo sapiens, UniProt P05771)	95.5%
Death-associated protein kinase 1 (DAPK1, Homo sapiens, UniProt P53355)	85.3%
cAMP-dependent protein kinase catalytic subunit alpha (PRKACA, Homo sapiens, UniProt P17612)	89.7%
Serine/threonine-protein kinase Nek2 (NEK2, Homo sapiens, UniProt P51955)	106%
Serine/threonine-protein kinase Chk2 (CHEK2, Homo sapiens, UniProt O96017)	61.1%
Inhibitor of nuclear factor kappa-B kinase subunit beta (IKBKB, Homo sapiens, UniProt O14920)	103%
Cyclin-dependent kinase 4, with cyclin D1 (CDK4, Homo sapiens, UniProt P11802)	66.4%
Inhibitor of nuclear factor kappa-B kinase subunit epsilon (IKBKE, Homo sapiens, UniProt Q14164)	88.3%
TGF-beta receptor type-1 (TGFBR1, Homo sapiens, UniProt P36897)	100%
Serine/threonine-protein kinase OSR1 (OXSR1, Homo sapiens, UniProt O95747)	95.5%
Mitogen-activated protein kinase 9 (MAPK9, Homo sapiens, UniProt P45984)	90.2%
Calcium/calmodulin-dependent protein kinase kinase 2 (CAMKK2, Homo sapiens, UniProt Q96RR4)	91.7%

Sample 3
Target: CCNE2, cyclin fold, Cln2 fusion (human)
Technique: yeast growth competition, sequencing
Matrix: yeast
Notes: strong parent motif
Relative to: not given
Direction: higher = stronger binding
Starting sequence: CDC25A docking peptide (human); PPHRRRLLFACSP; partner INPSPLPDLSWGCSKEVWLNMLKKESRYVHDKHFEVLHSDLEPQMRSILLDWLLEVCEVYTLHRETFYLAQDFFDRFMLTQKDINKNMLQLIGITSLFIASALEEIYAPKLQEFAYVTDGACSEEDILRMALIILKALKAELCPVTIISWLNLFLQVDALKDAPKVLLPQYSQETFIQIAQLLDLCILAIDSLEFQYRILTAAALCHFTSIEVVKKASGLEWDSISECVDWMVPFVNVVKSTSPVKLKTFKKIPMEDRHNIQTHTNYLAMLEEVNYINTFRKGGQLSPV
Change	normalised enrichment score
P13W	0.649
A10M	2.32
R6T	1.22
P2F	1.16
P1N	1.29
R4A	1.5
F9K	0.847
C11F	0.884

Sample 4
Compound: Cc1c(NC(=O)c2cc(C(N)=O)nc3cc(F)ccc23)c(C(F)(F)F)nn1Cc1ccc(C#N)cc1
Technique: competition with immobilised ligand
Concentration: 1 µM
target	test	remaining binding
Myosin light chain kinase (MYLK3, Homo sapiens, UniProt Q32MK0)	cell-free assay	79%
Platelet-derived growth factor receptor alpha (PDGFRA, Homo sapiens, UniProt P16234)	cell-free assay	73%
STE20-like serine/threonine-protein kinase (SLK, Homo sapiens, UniProt Q9H2G2)	cell-free assay	100%
Protein kinase C epsilon type (PRKCE, Homo sapiens, UniProt Q02156)	cell-free assay	74%
Ribosomal protein S6 kinase alpha-6, N-terminal kinase domain (RPS6KA6, Homo sapiens, UniProt Q9UK32)	cell-free assay	78%
eIF-2-alpha kinase GCN2, C-terminal kinase domain (EIF2AK4, Homo sapiens, UniProt Q9P2K8, S808G)	cell-free assay	100%
Cyclin-dependent kinase-like 5 (CDKL5, Homo sapiens, UniProt O76039)	binding	77%
Serine/threonine-protein kinase MARK1 (MARK1, Homo sapiens, UniProt Q9P0L2)	cell-free assay	100%
Serine/threonine-protein kinase ULK1 (ULK1, Homo sapiens, UniProt O75385)	cell-free assay	81%
Eukaryotic translation initiation factor 2-alpha kinase 1 (EIF2AK1, Homo sapiens, UniProt Q9BQI3)	cell-free assay	100%
Mast/stem cell growth factor receptor Kit (KIT, Homo sapiens, UniProt P10721, V559D)	cell-free assay	100%
Tyrosine-protein kinase ZAP-70 (ZAP70, Homo sapiens, UniProt P43403)	cell-free assay	84%
Serine/threonine-protein kinase RIO1 (RIOK1, Homo sapiens, UniProt Q9BRS2)	cell-free assay	93%
Tyrosine-protein kinase Lck (LCK, Homo sapiens, UniProt P06239)	binding	98%
Insulin receptor (INSR, Homo sapiens, UniProt P06213)	cell-free assay	100%
Dual specificity testis-specific protein kinase 1 (TESK1, Homo sapiens, UniProt Q15569)	cell-free assay	93%
Serine/threonine-protein kinase ULK2 (ULK2, Homo sapiens, UniProt Q8IYT8)	cell-free assay	81%

Excerpt of the above (sample 3):
Change	normalised enrichment score
A10M	2.32
R6T	1.22
P2F	1.16
P1N	1.29
R4A	1.5
